Measurements collected from several papers.
Each line is one published result; not all experiments were run side by side. Values joined by “and” are separate records of one study, mostly repeats; a detail may differ. ± marks the error that the study gave.
PPARG: Peroxisome proliferator-activated receptor gamma (PPARG, Homo sapiens, UniProt P37231)
TMEM97: Sigma intracellular receptor 2 (TMEM97, Homo sapiens, UniProt Q5BJF2)
RMS3 S96C: RMS3 (Lathyrus oleraceus, UniProt A0A109QYD3, S96C)
PPM1D: Protein phosphatase 1D (PPM1D, Homo sapiens, UniProt O15297)

For `Cc1c[nH]c2nccc(-c3ccc(C(=O)N[C@@H]4c5c(F)cc(C(F)F)cc5C[C@@H]4O)cn3)c12`, the Kd was 110 nM (MAP2K3 (Homo sapiens, UniProt P46734); binding, competition with immobilised ligand).
For `Cc1c(Cc2cccc(OC(C)(C)C(=O)O)c2)c2ccc(C(=O)N[C@@H](C)c3ccc(C(C)(C)C)cc3)cc2n1CC1CCC1`, the Kd was 1.14 nM (PPARG; ligand displacement, TR-FRET).
`Nc1ncc(-c2cc(-c3cnn(CC(F)(F)F)c3)ncc2F)nc1C(=O)NC1CNCC(F)C1` (stereo not shown) has a remaining binding of 91% (EGFR; KINOMEscan; 1 µM; baseline: DMSO control).
`Cc1c(Cc2cccc(OC(C)(C)C(=O)O)c2)c2ccc(C(=O)N[C@@H](C)c3ccc(F)c(C(C)(C)C)c3)cc2n1CC(C)C` has a Kd of 0.478 nM (PPARG; ligand displacement, TR-FRET).
With `CC(C)[C@@H]1NC(=O)[C@H](Cc2ccccc2)NC(=O)CSC[C@@H](C(N)=O)NC(=O)[C@H](CCC(=O)O)NC(=O)[C@H](CO)NC(=O)[C@H](Cc2c[nH]c3cccc(Cl)c23)NC(=O)[C@H](C2CCCCC2)NC(=O)[C@H](C(C)C)NC(=O)[C@H](Cc2ccc(O)cc2)NC(=O)[C@H](CC(=O)O)NC(=O)[C@H](Cc2c[nH]c3ccccc23)NC(=O)[C@H](Cc2ccc(N)nc2)NC(=O)[C@H](Cc2c[nH]c3ccc(Cl)cc23)NC(=O)[C@H](CCC(=O)O)NC1=O` the remaining activity was 103% (Interleukin-1 receptor-like 2 (IL1RL2, Homo sapiens, UniProt Q9HB29); reporter gene (SEAP), inhibitor, HEK-Blue IL-36R reporter; HEK-Blue IL-36R cells; 0.0017 µM, 6 h, added: IL-36γ 100 ng/mL).
`COc1ccc(O)c(C(=O)c2cnn(-c3oc(C)nc3C#N)c2)c1` has an IC50 of over 6000 nM (Plasmodium falciparum; parasite growth, parasite lactate dehydrogenase; NF54).
`Cc1ncsc1-c1ccc(C(C)NC(=O)C2CC(O)CN2C(=O)C(NC(=O)CCCCCCCCCCN2CCCC(Nc3ncc(Cl)c(Nc4ccccc4S(=O)(=O)C(C)C)n3)C2)C(C)(C)C)cc1` (stereo not shown): “log2 fold change” -1.05 (22Rv1; RNA-seq, item: MFHAS1 mRNA; concentration not given; baseline: DMSO).
`Cc1c(Cc2ccc(F)c(OC(C)C(=O)O)c2)c2ccc(C(=O)NC(C)c3ccc(C(C)(C)C)cc3)cc2n1CC1CCC1` (stereo not shown) gave a Kd of 0.345 nM (PPARG; ligand displacement, TR-FRET).
For `CN1CCCNC(=O)c2cccc(c2)C(=O)NCCCN(C)CCCNc2cccc3c2C(=O)c2cccc(c2C3=O)NCCC1`, “log2 fold change” read 0.708 (SAS; RNA-Seq, item: DDX20 mRNA; 1 µM, 6 h; baseline: untreated cells).
With `N=C(N)NCCC[C@H](NC(=O)[C@H](Cc1c[nH]cn1)NC(=O)[C@H](CO)NC(=O)[C@H](Cc1c[nH]cn1)NC(=O)[C@H](Cc1c[nH]cn1)NC(=O)[C@H](CCCCN)NC(=O)[C@H](CCC(=O)O)NC(=O)[C@@H](N)Cc1c[nH]cn1)C(=O)N[C@@H](CCC(=O)O)C(=O)N[C@@H](Cc1ccccc1)C(=O)O` the Kd was over 50000 nM (TMEM97; SPR; pH 7.4, 25 °C).
For `CNS(=O)(=O)Nc1nccc(Cc2c(C)c3ccc(Oc4ncccc4F)cc3oc2=O)c1F`, the IC50 was over 1000 nM (HEC-265; cell viability, CellTiter-Glo; 7 days).
The Tmax of `C=C(NC(=O)c1csc(-c2nc3c(cc2O)-c2nc(cs2)C(=O)NC(C(C)O)C(=O)NC(=C(C)OC)c2nc(cs2)C(=O)NC2c4nc(cs4)C(=O)NC(COC(=O)c4c5c6c(cccc6n4O)COC(=O)C(OC4CC(C)(O)C(N(C)C)C(C)O4)C2OC5)c2nc-3cs2)n1)C(N)=O` (stereo not shown) is reported as 13.8 min (cynomolgus monkey, male, plasma; intravenous infusion, 1.5 mg/kg twice daily, 0 to 30 h).
`CC1=C[C@H](O/C=C2/C(=O)O[C@H]3c4ccccc4C[C@@H]23)OC1=O` (racemic) has a Kd of 148000 nM (RMS3 S96C; binding, fluorescence).
`C=CC(=O)N1CC2(CCN(c3nc(OC4CCN(CCCOC)CC4)nc4c(OCC(F)(F)F)c(-c5c(C)ccc6[nH]ncc56)c(C5CC5)cc34)CC2)C1` has a Kd of 22100 ± 360 nM (GTPase KRas, GDP-bound (KRAS, Homo sapiens, UniProt P01116, G12D); SPR).
The Kd of `O=C(NS(=O)(=O)c1cccs1)c1cc2ccccc2n1Cc1ccc(Br)c2ccccc12` is reported as 6370 nM (SLC2A9 (Homo sapiens, UniProt Q9NRM0); binding).
For `CC(C)[C@H]1C(=O)N[C@H](CO)Cc2ccc(OCc3ccccc3)cc2N1C`, the Kd was 230 nM (protein kinase C C1 domain; binding, microscale thermophoresis and BLI).
The Kd of `CC(C)C[C@H](NC(=O)[C@H](Cc1ccc(O)cc1)NC(=O)[C@H](CC(N)=O)NC(=O)[C@H](CO)NC(=O)CNC(=O)[C@H](Cc1ccc(O)cc1)NC(=O)[C@H](CC(=O)O)NC(=O)CNC(=O)[C@H](Cc1ccc(O)cc1)NC(=O)[C@H](Cc1ccccc1)NC(=O)[C@@H]1CCCN1C(=O)[C@H](Cc1ccccc1)NC(=O)[C@H](CCC(=O)O)NC(=O)[C@H](CCCNC(=N)N)NC(=O)[C@H](Cc1c[nH]cn1)NC(=O)[C@H](CO)NC(=O)[C@H](Cc1c[nH]cn1)NC(=O)[C@H](Cc1c[nH]cn1)NC(=O)[C@H](CCCCN)NC(=O)[C@H](CCC(=O)O)NC(=O)[C@@H](N)Cc1c[nH]cn1)C(=O)N[C@@H](Cc1ccc(O)cc1)C(=O)N[C@@H](CC(=O)O)C(=O)N[C@@H](CC(N)=O)C(=O)O` is reported as over 50000 nM (TMEM97; SPR; pH 7.4, 25 °C).
The Kd of `Cc1c(Cc2cc(Cl)cc(OC(C)C(=O)O)c2)c2ccc(C(=O)NC(C)c3ccc(C(C)(C)C)cc3)cc2n1CC1CC1` (stereo not shown) is reported as 9.44 nM (PPARG; ligand displacement, TR-FRET).
`COc1ccc(-c2nc(CC(=O)NC(c3nc4ccccc4[nH]3)C(C)C)cs2)cc1OC` (stereo not shown) gave a Kd of 360 nM (CD27 antigen (CD27, Homo sapiens, UniProt P26842); microscale thermophoresis).
The Kd of `C[N+]1(C)CCCC1` is reported as 203000 nM (Chrnd/Chrna1/Chrne (Mus musculus, UniProt P02716+P04756+P20782, G173P/S470W); single-channel kinetics; P chain side site).
For `C#CCCCn1cnc(N)c2nc(Sc3ccc(C)cc3C)nc1-2`, the Kd was 541000 nM (HSP90AA1 (Homo sapiens, UniProt P07900); binding, ITC).
For `CCCCCCCO[C@H]1O[C@H](CO)[C@@H](O)[C@H](O)[C@@H]1O`, the Kd was 28.9 nM (Type 1 fimbrin D-mannose specific adhesin, lectin domain (fimH, Escherichia coli K-12, UniProt P08191); binding, isothermal titration calorimetry; 25 °C, global fit, two runs).
`Cc1c(Cc2ccc(Cl)c(O[C@H](C)C(=O)O)c2)c2ccc(C(=O)N[C@@H](C)c3ccc(C(C)(C)C)cc3)cc2n1C` gave a Kd of 0.781 nM (PPARG; ligand displacement, TR-FRET).
Under “log2 fold change”, `COC1CN([C@H]2CC[C@H]([C@@]3(C)Oc4c(Cl)cc(C(=O)NCc5c(SC)cc(C)[nH]c5=O)c(C)c4O3)CC2)C1` is recorded as 0.708 (RNA-seq, item: PITHD1 mouse homolog; mouse, HT-1376 xenograft, whole blood; dose not given; baseline: vehicle).
`COc1ccc(-c2oc3c(CC=C(C)C)c(O)cc(O)c3c(=O)c2O[C@@H]2O[C@@H](C)[C@H](O)[C@@H](O)[C@H]2O)cc1` has a Kd of 197 nM (Response regulator SaeR (saeR, Staphylococcus aureus, UniProt Q2FIT4); binding).
`C=CC(=O)Nc1cccc(Cn2ncc3cnc(Nc4cnn(CCOC)c4)nc32)c1` — result for “percent of control”: 27% (FGFR2 human; binding, KINOMEscan; 100 nM; lower = stronger binding).
With `COC(=O)CCCNC(=O)c1cc(S(N)(=O)=O)c(Cl)cc1NC1CCCCC1` the Kd was 2000 nM (CA13 (Homo sapiens, UniProt Q8N1Q1); pH 7).
`CC1=C(C)C(Oc2c(F)cc3c(C)cc(=O)oc3c2F)OC1=O` (racemic) gave a Kd of 126000 nM (RMS3 S96C; binding, fluorescence).
With `N=C(N)NCCC[C@H](NC(=O)[C@H](Cc1c[nH]cn1)NC(=O)[C@H](CO)NC(=O)[C@H](Cc1c[nH]cn1)NC(=O)[C@H](Cc1c[nH]cn1)NC(=O)[C@H](CCCCN)NC(=O)[C@H](CCC(=O)O)NC(=O)[C@H](Cc1c[nH]cn1)NC(=O)[C@H](Cc1ccccc1)NC(=O)[C@H](CCCCN)NC(=O)[C@@H](N)CCCNC(=N)N)C(=O)N[C@@H](CCC(=O)O)C(=O)N[C@@H](Cc1ccccc1)C(=O)O` the Kd was 3130 ± 330 nM (TMEM97; SPR; pH 7.4, 25 °C).
With `CC(CC1CC2CCC1C2)Nc1nn2c(=O)ccnc2s1` (stereo not shown) the Kd was 5300 nM (PPM1D; binding).
With `C[C@@H]1NC(=O)[C@@H]2CSSC[C@H](NC(=O)[C@H](CC(=O)O)NC(=O)[C@H](CC(=O)O)NC(=O)CNC(=O)[C@H](CC(=O)O)NC(=O)[C@H](Cc3ccc(O)cc3)NC1=O)C(=O)N[C@@H](CCCCN)C(=O)N[C@@H](CO)C(=O)N[C@@H](C)C(=O)NCCc1cccc3c1Oc1c(cccc1-3)CCC(=O)N[C@@H](CO)C(=O)N2` the Kd was 46 nM (Lymphocyte function-associated antigen 3 (CD58, Homo sapiens, UniProt P19256); binding to CD58, SPR, immobilized CD58).
The Kd of `Cc1cccc2c1N(C(=O)n1ccnn1)CC2` is reported as 66700 nM and 78100 nM and 128000 nM (KAI2 (Arabidopsis thaliana, UniProt Q9SZU7, H246A); ITC; H246A mutant).
The Kd of `COc1ccc(-c2ccccc2)cc1NS(=O)(=O)c1cc(Cl)cc(Cl)c1O` is reported as 47800 nM (Triggering receptor expressed on myeloid cells 2 (Homo sapiens, UniProt Q9NZC2); binding, SPR).
For `Cc1c(Cc2ccc(F)c(OC(C)C(=O)O)c2)c2ccc(C(=O)NC(C)c3ccc(C(C)(C)C)cc3)cc2n1CC(C)C` (stereo not shown), the Kd was 3.01 nM (PPARG; ligand displacement, TR-FRET).
The IC50 of `COc1ccc(C(C)N(C)c2nc(N)nc3nc[nH]c23)cc1` (stereo not shown) is reported as over 6000 nM (Plasmodium falciparum; parasite growth, parasite lactate dehydrogenase; NF54).
With `Cc1c(Cc2cccc(OC(C)(C)C(=O)O)c2)c2ccc(C(=O)N[C@@H](C)c3cccc(C(C)(C)C)c3)cc2n1CC1CCC1` the Kd was 2.37 nM (PPARG; ligand displacement, TR-FRET).
The IC50 of `Cc1nn(-c2cccc(N)c2)c(=O)c2cnc(Nc3ccc(N4CCNCC4)cc3)nc12` is reported as over 10000 nM (KIT (Homo sapiens, UniProt P10721); kinase activity, inhibitor, SelectScreen kinase profiling).
The Kd of `Cc1c(Cc2ccc(Cl)c(O[C@H](C)C(=O)O)c2)c2ccc(C(=O)N[C@@H](C)c3ccc(C(C)(C)C)cc3)cc2n1CC(C)C` is reported as 0.155 nM (PPARG; ligand displacement, TR-FRET).
`C[C@H](NC(=O)[C@H](C)NC(=O)[C@H](CCCNC(=N)N)NC(=O)[C@H](Cc1ccc(O)cc1)NC(=O)CN)C(=O)N[C@@H](C)C(=O)N[C@@H](Cc1c[nH]cn1)C(=O)N[C@@H](CCC(=O)O)C(=O)N[C@@H](CCCCN)C(=O)N[C@@H](Cc1c[nH]cn1)C(=O)N[C@@H](Cc1c[nH]cn1)C(=O)N[C@@H](CO)C(=O)N[C@@H](Cc1c[nH]cn1)C(=O)N[C@@H](CCCNC(=N)N)C(=O)N[C@@H](CCC(=O)O)C(=O)N[C@@H](Cc1ccccc1)C(=O)N1CCC[C@H]1C(=O)N[C@@H](Cc1ccccc1)C(=O)O` gave a Kd of 10100 ± 1800 nM (TMEM97; SPR; pH 7.4, 25 °C).
With `CN(C)c1ccc2c(-c3cc(C(=O)NCCNC(=O)[C@H](CC4CCCCC4)NC(=O)c4ccc(CNc5ccccn5)s4)ccc3C(=O)O)c3ccc(=[N+](C)C)cc-3oc2c1` the Kd was 150 nM (PPM1D; binding).

Excerpt of the above:
The Kd of `C[N+]1(C)CCCC1` is reported as 203000 nM (Chrnd/Chrna1/Chrne (Mus musculus, UniProt P02716+P04756+P20782, G173P/S470W); single-channel kinetics; P chain side site).
For `C#CCCCn1cnc(N)c2nc(Sc3ccc(C)cc3C)nc1-2`, the Kd was 541000 nM (HSP90AA1 (Homo sapiens, UniProt P07900); binding, ITC).
